Results gathered from unrelated publications.
Numbered parts are unrelated; each lists some results of a single study.
Sequence of UniProt Q7KZI7 (whole entry, looked up): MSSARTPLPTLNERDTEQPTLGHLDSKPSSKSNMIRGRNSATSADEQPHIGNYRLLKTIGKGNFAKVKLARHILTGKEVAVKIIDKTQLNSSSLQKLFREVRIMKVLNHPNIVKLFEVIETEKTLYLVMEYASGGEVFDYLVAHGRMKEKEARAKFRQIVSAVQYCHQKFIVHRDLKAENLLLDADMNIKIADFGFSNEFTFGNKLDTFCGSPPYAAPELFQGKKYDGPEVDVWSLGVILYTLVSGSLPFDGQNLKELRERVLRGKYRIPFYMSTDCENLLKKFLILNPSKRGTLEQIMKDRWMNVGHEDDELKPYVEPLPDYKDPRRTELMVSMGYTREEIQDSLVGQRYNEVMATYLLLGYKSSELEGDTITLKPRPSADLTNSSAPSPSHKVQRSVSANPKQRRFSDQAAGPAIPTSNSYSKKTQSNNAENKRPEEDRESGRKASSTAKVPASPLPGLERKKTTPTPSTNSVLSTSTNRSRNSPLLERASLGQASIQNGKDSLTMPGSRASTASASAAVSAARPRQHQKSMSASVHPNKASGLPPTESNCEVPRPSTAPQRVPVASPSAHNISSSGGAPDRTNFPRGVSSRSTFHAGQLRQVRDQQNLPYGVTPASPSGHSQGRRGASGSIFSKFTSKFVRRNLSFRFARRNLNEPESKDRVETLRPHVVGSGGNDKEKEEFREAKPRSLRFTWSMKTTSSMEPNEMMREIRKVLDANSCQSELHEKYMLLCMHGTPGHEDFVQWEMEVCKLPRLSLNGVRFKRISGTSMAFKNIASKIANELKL
Sequence of UniProt Q9H4B4 (whole entry, looked up): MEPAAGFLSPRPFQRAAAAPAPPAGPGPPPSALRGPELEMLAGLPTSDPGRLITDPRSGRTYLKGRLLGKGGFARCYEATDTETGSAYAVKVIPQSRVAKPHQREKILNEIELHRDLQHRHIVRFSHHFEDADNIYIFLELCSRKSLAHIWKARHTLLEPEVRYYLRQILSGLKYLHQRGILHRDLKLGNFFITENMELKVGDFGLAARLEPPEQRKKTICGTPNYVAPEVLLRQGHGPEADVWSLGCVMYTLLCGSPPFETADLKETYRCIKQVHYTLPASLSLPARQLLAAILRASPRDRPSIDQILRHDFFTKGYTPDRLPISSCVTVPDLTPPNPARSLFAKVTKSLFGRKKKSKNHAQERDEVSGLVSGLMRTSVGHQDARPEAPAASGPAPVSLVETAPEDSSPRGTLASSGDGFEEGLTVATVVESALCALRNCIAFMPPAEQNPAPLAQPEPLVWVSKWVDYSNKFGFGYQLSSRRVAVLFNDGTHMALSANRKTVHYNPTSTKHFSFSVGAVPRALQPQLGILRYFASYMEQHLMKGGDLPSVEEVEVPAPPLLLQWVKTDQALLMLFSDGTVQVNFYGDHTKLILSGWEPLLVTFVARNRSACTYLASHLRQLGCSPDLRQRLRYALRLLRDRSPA
Sequence of UniProt Q9H093 (whole entry, looked up): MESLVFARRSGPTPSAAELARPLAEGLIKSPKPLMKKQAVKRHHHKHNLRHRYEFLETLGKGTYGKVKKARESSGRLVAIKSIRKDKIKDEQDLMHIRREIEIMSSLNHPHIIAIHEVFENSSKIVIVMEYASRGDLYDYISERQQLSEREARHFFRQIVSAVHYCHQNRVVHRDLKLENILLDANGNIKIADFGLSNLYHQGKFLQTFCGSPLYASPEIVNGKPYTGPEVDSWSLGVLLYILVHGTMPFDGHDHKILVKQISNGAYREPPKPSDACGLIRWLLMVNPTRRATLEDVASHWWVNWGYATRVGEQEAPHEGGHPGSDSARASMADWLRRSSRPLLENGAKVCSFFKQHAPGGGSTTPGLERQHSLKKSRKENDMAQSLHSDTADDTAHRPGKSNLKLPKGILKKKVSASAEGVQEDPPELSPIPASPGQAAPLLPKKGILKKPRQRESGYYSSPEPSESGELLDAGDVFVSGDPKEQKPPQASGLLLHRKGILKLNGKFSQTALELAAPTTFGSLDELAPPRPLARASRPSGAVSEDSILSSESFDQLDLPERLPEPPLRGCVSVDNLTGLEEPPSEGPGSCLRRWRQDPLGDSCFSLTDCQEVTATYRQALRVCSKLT
Sequence of UniProt P15735 (whole entry, looked up): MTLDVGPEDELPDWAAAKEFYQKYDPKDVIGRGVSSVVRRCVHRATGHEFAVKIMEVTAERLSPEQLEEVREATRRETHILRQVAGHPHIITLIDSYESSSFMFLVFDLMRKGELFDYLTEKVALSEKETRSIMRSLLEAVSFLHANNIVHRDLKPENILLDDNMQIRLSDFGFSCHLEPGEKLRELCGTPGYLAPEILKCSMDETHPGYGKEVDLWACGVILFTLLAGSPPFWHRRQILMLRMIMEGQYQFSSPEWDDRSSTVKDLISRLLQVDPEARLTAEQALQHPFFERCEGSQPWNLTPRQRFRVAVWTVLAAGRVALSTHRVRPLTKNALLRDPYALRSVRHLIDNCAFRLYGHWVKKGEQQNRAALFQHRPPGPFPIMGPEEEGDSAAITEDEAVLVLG
Sequence of UniProt P45985 (whole entry, looked up): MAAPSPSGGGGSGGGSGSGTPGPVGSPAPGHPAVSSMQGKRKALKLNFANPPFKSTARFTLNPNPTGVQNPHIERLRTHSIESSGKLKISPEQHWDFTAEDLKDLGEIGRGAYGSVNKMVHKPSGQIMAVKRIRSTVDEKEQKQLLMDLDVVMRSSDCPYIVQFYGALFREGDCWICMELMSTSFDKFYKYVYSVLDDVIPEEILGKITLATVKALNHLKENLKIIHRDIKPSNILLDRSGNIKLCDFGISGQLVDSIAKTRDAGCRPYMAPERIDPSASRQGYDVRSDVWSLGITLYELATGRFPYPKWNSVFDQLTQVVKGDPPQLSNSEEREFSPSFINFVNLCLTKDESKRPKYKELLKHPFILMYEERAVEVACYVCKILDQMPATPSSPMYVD
Sequence of UniProt Q92630 (whole entry, looked up): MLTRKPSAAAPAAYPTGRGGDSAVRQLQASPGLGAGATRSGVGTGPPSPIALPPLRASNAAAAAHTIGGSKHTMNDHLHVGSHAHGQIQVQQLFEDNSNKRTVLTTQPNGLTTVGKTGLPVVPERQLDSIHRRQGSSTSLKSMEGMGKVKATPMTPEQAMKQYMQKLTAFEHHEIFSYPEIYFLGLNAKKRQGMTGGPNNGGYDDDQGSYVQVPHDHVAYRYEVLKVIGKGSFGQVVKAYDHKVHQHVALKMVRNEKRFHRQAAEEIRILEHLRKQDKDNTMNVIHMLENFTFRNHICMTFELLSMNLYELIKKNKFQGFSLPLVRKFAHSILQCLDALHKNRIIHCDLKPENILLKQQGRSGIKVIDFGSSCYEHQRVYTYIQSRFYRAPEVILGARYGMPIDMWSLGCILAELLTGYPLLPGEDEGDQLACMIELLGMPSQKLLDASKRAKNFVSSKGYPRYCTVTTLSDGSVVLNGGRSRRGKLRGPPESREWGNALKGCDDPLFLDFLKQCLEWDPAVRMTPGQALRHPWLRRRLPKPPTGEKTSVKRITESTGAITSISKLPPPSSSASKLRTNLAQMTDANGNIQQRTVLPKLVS
Sequence of UniProt Q15759 (whole entry, looked up): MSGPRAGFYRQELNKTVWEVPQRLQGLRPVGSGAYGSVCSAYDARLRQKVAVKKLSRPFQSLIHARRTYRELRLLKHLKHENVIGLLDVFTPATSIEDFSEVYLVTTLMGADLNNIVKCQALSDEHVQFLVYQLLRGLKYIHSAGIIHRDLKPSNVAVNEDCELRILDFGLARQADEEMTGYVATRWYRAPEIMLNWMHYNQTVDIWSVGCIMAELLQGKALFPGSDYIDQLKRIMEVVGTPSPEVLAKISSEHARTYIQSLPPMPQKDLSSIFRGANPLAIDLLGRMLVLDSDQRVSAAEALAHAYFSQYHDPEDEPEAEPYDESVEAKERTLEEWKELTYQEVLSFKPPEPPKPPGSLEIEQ

Block 1 — effect on: cell-free assay; technique: competition with immobilised ligand; tested at: 1 µM
SMILES: O=C(NCc1ncc(C(F)(F)F)cc1Cl)c1ccc2c(c1)C1(CCS(=O)(=O)CC1)[C@H](C1CC1)N2S(=O)(=O)c1ccc(F)cc1
target | remaining binding [%]
CSNK2A2 (Homo sapiens, UniProt P19784) | 100
RET (Homo sapiens, UniProt P07949, V804M) | 100
ABL2 (Homo sapiens, UniProt P42684) | 100
STK32B (Homo sapiens, UniProt Q9NY57) | 100
PIK3CA (Homo sapiens, UniProt P42336, M1043I) | 93
NUAK2 (Homo sapiens, UniProt Q9H093) | 81
IRAK1 (Homo sapiens, UniProt P51617) | 82
MAPK11 (Homo sapiens, UniProt Q15759) | 100
PLK3 (Homo sapiens, UniProt Q9H4B4) | 92
MARK2 (Homo sapiens, UniProt Q7KZI7) | 100
TAOK1 (Homo sapiens, UniProt Q7L7X3) | 100
DYRK2 (Homo sapiens, UniProt Q92630) | 95
MAP3K4 (Homo sapiens, UniProt Q9Y6R4) | 100
PIKFYVE (Homo sapiens, UniProt Q9Y2I7) | 84

Block 2 — effect on: enzyme activity; tested at: 5 µM
Compound: O=C(Nc1cnn(-c2csc(C(=O)NC3COC3)c2)c1)Nc1c(F)cccc1Cl
target | action | relative to | remaining activity
MARK2 (Homo sapiens, UniProt Q7KZI7) | – | untreated control | 89.4%
ABL1 (Homo sapiens, UniProt P00519) | – | untreated control | 99.6%
MAP2K4 (Homo sapiens, UniProt P45985) | inhibitor | – | 133%
ARAF (Homo sapiens, UniProt P10398) | – | untreated control | 92.6%
TLK2 (Homo sapiens, UniProt Q86UE8) | – | untreated control | 106%
PHKG2 (Homo sapiens, UniProt P15735) | – | untreated control | 127%
PRKCH (Homo sapiens, UniProt P24723) | – | untreated control | 97.4%
MAP4K1 (Homo sapiens, UniProt Q92918) | inhibitor | – | 92.7%
TNK2 (Homo sapiens, UniProt Q07912) | – | untreated control | 85.9%

Block 3 — host: human; matrix: microsomes or S9; tested at: 2 µM; time: 0.5 h
Structure (SMILES) | remaining compound [%]
Cn1nc(CNC(=O)C2CC(=O)N(C3CCCCC3)C2)c2c1CCN(S(C)(=O)=O)C2 (stereo not shown) | 64.3
CCc1cccc(N2C(=O)Nc3ccccc3N2O)c1 | 64.3
NS(=O)(=O)c1ccc(-c2nc3cscc3c(=O)[nH]2)cc1 | 54.8
O=C(NCC1CCN(c2ccc(F)cc2)C1)C1CC(O)CN1 (stereo not shown) | 96.6
Brc1ccc2c(c1)CCN2Cc1cnc(-c2ccncc2)s1 | 60.8
O=C(NC1=C(C(=O)c2ccccc2)N(Cc2ccccc2)S(=O)(=O)c2ccccc21)c1ccccc1 | 3.76

Block 4 — SMILES: C=CCc1ccc(O)c(-c2ccc(O)c(CC=C)c2)c1
ANO1 del476-501: Anoctamin-1 (ANO1, Homo sapiens, UniProt Q5XXA6, del476-501)
Sequence of UniProt Q5XXA6 (whole entry, unmodified, looked up): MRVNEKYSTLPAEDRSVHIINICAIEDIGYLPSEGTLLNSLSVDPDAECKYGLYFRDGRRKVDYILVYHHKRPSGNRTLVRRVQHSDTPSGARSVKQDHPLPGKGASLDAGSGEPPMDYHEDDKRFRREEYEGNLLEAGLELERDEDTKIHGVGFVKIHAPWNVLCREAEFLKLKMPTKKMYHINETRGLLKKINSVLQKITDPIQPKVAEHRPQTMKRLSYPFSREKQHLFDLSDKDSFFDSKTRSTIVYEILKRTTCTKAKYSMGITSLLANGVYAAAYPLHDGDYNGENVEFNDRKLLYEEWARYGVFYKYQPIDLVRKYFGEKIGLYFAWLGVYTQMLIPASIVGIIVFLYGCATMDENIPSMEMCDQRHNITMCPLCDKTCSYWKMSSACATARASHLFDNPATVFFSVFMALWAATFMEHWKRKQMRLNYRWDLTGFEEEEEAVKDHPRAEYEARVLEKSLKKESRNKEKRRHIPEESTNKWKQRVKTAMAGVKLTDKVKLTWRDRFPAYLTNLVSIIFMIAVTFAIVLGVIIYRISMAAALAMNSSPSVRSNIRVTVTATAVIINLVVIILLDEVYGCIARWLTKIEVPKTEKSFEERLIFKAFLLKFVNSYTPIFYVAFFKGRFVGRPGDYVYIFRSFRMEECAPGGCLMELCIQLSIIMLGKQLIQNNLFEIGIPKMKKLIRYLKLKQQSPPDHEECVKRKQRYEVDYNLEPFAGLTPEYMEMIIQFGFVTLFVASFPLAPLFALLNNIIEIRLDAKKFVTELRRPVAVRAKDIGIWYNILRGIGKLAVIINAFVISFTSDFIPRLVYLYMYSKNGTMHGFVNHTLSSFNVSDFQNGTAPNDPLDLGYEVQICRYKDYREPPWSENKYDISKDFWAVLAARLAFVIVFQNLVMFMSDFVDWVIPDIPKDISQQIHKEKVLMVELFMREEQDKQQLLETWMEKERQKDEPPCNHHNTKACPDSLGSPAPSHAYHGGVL
target | test | setting | normalized current
Anoctamin-1 (ANO1, Homo sapiens, UniProt Q5XXA6, del476-501/E649A) | ion current, inside-out patch clamp | 10 µM, E623A mutant at 20 mV | 0.148
Anoctamin-1 (ANO1, Homo sapiens, UniProt Q5XXA6, del476-501/E649A/R541A) | chloride current, inside-out patch clamp | 10 µM, membrane voltage 20 mV | 0.0923
Anoctamin-1 (ANO1, Homo sapiens, UniProt Q5XXA6, del476-501/R631A) | chloride current, inhibitor, whole-cell voltage clamp | 1 µM, R605A mutant | 0.801
ANO1 del476-501 | chloride current, whole-cell voltage clamp | 1 µM, wild type, I-V at -100 mV, together with: 4 µM Ca2+ | -0.784
ANO1 del476-501 | chloride current, whole-cell voltage clamp | 10 µM, wild type, I-V at 80 mV, together with: 4 µM Ca2+ | 0.24
Anoctamin-1 (ANO1, Homo sapiens, UniProt Q5XXA6) | chloride current, inside-out patch clamp | 10 µM, membrane voltage -20 mV | -0.148
Anoctamin-1 (ANO1, Homo sapiens, UniProt Q5XXA6, del476-501/K629A) | chloride current, inside-out patch clamp | 10 µM, membrane voltage -20 mV | -0.099
ANO1 del476-501 | chloride current, whole-cell voltage clamp | 30 µM, wild type, I-V at -40 mV, together with: 4 µM Ca2+ | -0.0279

Repeated from above (block 3):
Structure (SMILES) | remaining compound [%]
Cn1nc(CNC(=O)C2CC(=O)N(C3CCCCC3)C2)c2c1CCN(S(C)(=O)=O)C2 (stereo not shown) | 64.3
CCc1cccc(N2C(=O)Nc3ccccc3N2O)c1 | 64.3
NS(=O)(=O)c1ccc(-c2nc3cscc3c(=O)[nH]2)cc1 | 54.8
O=C(NCC1CCN(c2ccc(F)cc2)C1)C1CC(O)CN1 (stereo not shown) | 96.6
Brc1ccc2c(c1)CCN2Cc1cnc(-c2ccncc2)s1 | 60.8
O=C(NC1=C(C(=O)c2ccccc2)N(Cc2ccccc2)S(=O)(=O)c2ccccc21)c1ccccc1 | 3.76
